Published values of several laboratories.
Parts stem from different laboratories: compare values within a part only. Positions count from the first letter of the parent shown.

Block 1
Target: CCNE1, cyclin fold, Cln2 fusion (human)
Technique: yeast growth competition, sequencing
Matrix: yeast
Notes: strong parent motif
Relative to: not given
Direction: higher = stronger binding
Endpoint: normalised enrichment score
Starting sequence: CDKN1A docking peptide (human); SKACRRLFGPVDS
Substitution = K2M; value = 5.02
Substitution = G9E; value = 5.94
Substitution = K2P; value = 4.58
Substitution = C4W; value = 0.944
Substitution = A3V; value = 6.15
Substitution = D12G; value = 4.6
Substitution = D12K; value = 3.82
Substitution = R6E; value = 1.92
Substitution = F8H; value = 0.122
Substitution = P10N; value = 5.42
Substitution = C4F; value = 0.704
Substitution = P10K; value = 3.95
Substitution = R6C; value = 3.19
Substitution = V11F; value = 5.73
Substitution = V11N; value = 5.67
Substitution = G9F; value = 5.86
Substitution = R6K; value = 4.8
Substitution = P10I; value = 3.83
Substitution = A3Q; value = 0.209
Substitution = S13A; value = 5.49
Substitution = F8W; value = 3.83
Substitution = V11R; value = 4.43
Substitution = L7A; value = -0.0877

Block 2
Target: ABI1, truncated, D143A, DHFR fusion (Arabidopsis thaliana)
Technique: DHFR PCA, deep sequencing
Matrix: yeast
Notes: methotrexate growth selection, single substitutions
Added: (+)-ABA 0.11 µM
Relative to: wild-type fitted maximum
Direction: higher = stronger binding
Endpoint: relative binding score
Starting sequence: PYL1, truncated, DHFR fusion (Arabidopsis thaliana); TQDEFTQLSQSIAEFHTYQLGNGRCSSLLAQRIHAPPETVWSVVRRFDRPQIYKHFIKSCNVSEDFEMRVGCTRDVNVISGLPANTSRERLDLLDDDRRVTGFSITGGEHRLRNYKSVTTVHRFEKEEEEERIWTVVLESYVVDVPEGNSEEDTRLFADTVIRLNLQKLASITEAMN
Substitution = R46C; value = 5.4%
Substitution = E128M; value = 20.7%
Substitution = V40E; value = -2.87%
Substitution = H122V; value = -2.63%
Substitution = F103G; value = -7.85%
Substitution = C60N; value = 2.07%
Substitution = L28R; value = 4.92%
Substitution = A170F; value = -21.4%
Substitution = E67K; value = 28.9%
Substitution = R69V; value = 43.9%
Substitution = D48Y; value = 3.71%
Substitution = R163G; value = 11.8%
Substitution = Q2N; value = 29.9%
Substitution = R45Y; value = -13.1%
Substitution = T1W; value = 29.8%
Substitution = F15A; value = 7.43%

Block 3
Target: MAFK, bZIP domain (human)
Technique: DHFR protein complementation
Matrix: yeast
Notes: single substitutions, most at no-binding floor
Relative to: wild-type JUN-FOS pair
Direction: higher = stronger binding
Endpoint: binding fitness
Starting sequence: JUN, bZIP domain (human); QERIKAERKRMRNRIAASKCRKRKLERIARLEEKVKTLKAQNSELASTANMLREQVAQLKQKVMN; partner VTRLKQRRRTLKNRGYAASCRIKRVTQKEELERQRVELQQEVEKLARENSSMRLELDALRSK
Substitution = A40E; value = -1.48 natural log
Substitution = A49K; value = -1.41 natural log
Substitution = Q41R; value = -1.5 natural log
Substitution = K36M; value = -1.26 natural log
Substitution = L38M; value = -1.55 natural log
Substitution = S47W; value = -1.52 natural log
Substitution = N42E; value = -1.43 natural log
Substitution = L45V; value = -1.48 natural log
Substitution = A57G; value = -1.48 natural log
Substitution = R30G; value = -1.44 natural log
Substitution = L38E; value = -1.5 natural log
Substitution = Q55T; value = -1.5 natural log
Substitution = L59F; value = -1.48 natural log
Substitution = Q58H; value = -1.41 natural log
Substitution = L59C; value = -1.47 natural log
Substitution = R30Q; value = -1.46 natural log
Substitution = R30F; value = -1.6 natural log
Substitution = V56F; value = -1.5 natural log
Substitution = L52G; value = -1.48 natural log
Substitution = M51D; value = -1.59 natural log
Substitution = E33A; value = -1.49 natural log
Substitution = A49Q; value = -1.52 natural log
Substitution = V56P; value = -1.5 natural log
Substitution = K39M; value = -1.52 natural log
Substitution = L52I; value = -1.23 natural log

Block 4
Target: Interferon regulatory factor 3, full length, phosphomimetic (IRF3, Homo sapiens, UniProt Q14653, residues 1-427, S386D/S396D/S398D/S402D/T404D/S405D)
Technique: protein-binding microarray
Form: double-stranded DNA, one strand shown
Matrix: in vitro
Concentration: 2540 nM top
Notes: 60-bp whole probe
Added: salmon DNA 0.4 mg/ml
Relative to: random background probes
Direction: higher = stronger binding
Endpoint: fitted relative affinity
All sequences stand within: GCCTAGCAC … GTCTTGATTCGCTTGACGCTGCTG
Residues (chain): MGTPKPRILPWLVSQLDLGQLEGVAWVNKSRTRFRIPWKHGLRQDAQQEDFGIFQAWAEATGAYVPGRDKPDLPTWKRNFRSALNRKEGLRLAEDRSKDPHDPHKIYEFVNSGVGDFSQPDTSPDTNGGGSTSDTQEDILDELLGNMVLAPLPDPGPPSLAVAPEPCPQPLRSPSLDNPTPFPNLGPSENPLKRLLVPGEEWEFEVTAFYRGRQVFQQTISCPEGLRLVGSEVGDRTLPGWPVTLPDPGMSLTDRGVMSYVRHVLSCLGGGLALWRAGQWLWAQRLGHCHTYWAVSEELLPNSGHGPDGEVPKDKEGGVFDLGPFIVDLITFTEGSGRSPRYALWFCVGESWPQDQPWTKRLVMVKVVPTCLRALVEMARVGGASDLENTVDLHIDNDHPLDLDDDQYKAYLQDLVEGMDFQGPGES
Sequence = TTAGAACTGAGTCTCGATTAGTGCTAG; value = -0.416 z-score
Sequence = TTAGATTTCAGATCCGATTAGTGCTAG; value = 2.85 z-score
Sequence = GACGGTCACCTTATCCTGACGTGCTAG; value = 1.12 z-score
Sequence = TTAGATATCAGTCTCGAATAGTGCTAG; value = 1.25 z-score
Sequence = TTAGGTATCGGACTGGGGTAGTGCTAG; value = 1.11 z-score
Sequence = GACGGTTTCGGACTGGAGACGTGCTAG; value = 4.86 z-score
Sequence = TCATTTTCCCCCCTCACACTGTGCTAG; value = 3.05 z-score
Sequence = TCAGGTAGCCTTATCCCACTGTGCTAG; value = 1.29 z-score
Sequence = GACGATATCGGGTAGCGAGACGTGCTA; value = 0.058 z-score
Sequence = CTCACCTCAGCCTCCCAAGTGTGCTAG; value = 0.212 z-score
Sequence = TTTGGTATCGACACTGGGTTAGTGCTA; value = 0.539 z-score
Sequence = GACGGTTCCCTTTTCCTGATGTGCTAG; value = 5.73 z-score
Sequence = AGGTTGATGGCTCTCTGGACGTGCTAG; value = -0.834 z-score
Sequence = TGTCTTTTCATTTTCTTTAAGTGCTAG; value = 2.59 z-score
Sequence = TCAACTCTCTACATGGGACTGTGCTAG; value = 0.328 z-score
Sequence = GGGAACTTAAACCTCTAAAGGTGCTAG; value = -0.271 z-score
Sequence = GGCGATATCGGGTTTCGAGACGTGCTA; value = 0.93 z-score
Sequence = TTCGGTTTCCTTTCCCTTTAGTGCTAG; value = 10.8 z-score
Sequence = GACGGTTTCCTTTCCCTGAGGTGCTAG; value = 9.25 z-score
Sequence = GACGGTTTCCTGTTCCTGACGTGCTAG; value = 4.59 z-score
Sequence = GACGCTTTCAGTTCCGAGACGTGCTAG; value = 3.23 z-score
Sequence = ATAAAAATCTTTGTTGGAGGGGTGCTA; value = -0.564 z-score
Sequence = TCCCCTCCGGGACCCGCCTCGTGCTAG; value = -0.189 z-score
Sequence = GACGAACTGAGTTGCGAGACGTGCTAG; value = 0.256 z-score

Block 5
Partner: ARF22 498-598 (Arabidopsis thaliana, UniProt Q9C8N7)
Technique: two-hybrid
Relative to: out of 4 tests
Direction: higher = firmer interaction
Endpoint: positive tests
B1: ARF12 500-593 (Arabidopsis thaliana, UniProt Q9XID4); chain TEIQNKQFSSSRTCTKVQMQGVTIGRAVDLSVLNGYDQLILELEKLFDIKGQLQTRNQWEIAFTDSDEDKMLVGDDPWPEFCNMVKKIFIQKRR
B2: IAA12 (Arabidopsis thaliana, UniProt Q38830); chain MRGVSELEVGKSNLPAESELELGLGLSLGGGAWKERGRILTAKDFPSVGSKRSAESSSHQGASPPRSSQVVGWPPIGLHRMNSLVNNQAMKAARAEEGDGEKKVVKNDELKDVSMKVNPKVQGLGFVKVNMDGVGIGRKVDMRAHSSYENLAQTLEEMFFGMTGTTCREKVKPLRLLDGSSDFVLTYEDKEGDWMLVGDVPWRMFINSVKRLRIMGTSEASGLAPRRQEQKDRQRNNPV
B3: ARF5 788-902 (Arabidopsis thaliana, UniProt P93024); chain ATPRVRTYTKVQKTGSVGRSIDVTSFKDYEELKSAIECMFGLEGLLTHPQSSGWKLVYVDYESDVLLVGDDPWEEFVGCVRCIRILSPTEVQQMSEEGMKLLNSAGINDLKTSVS
B4: IAA31 (Arabidopsis thaliana, UniProt Q8H174); chain MEVSNSCSSFSSSSVDSTKPSPSESSVNLSLSLTFPSTSPQREARQDWPPIKSRLRDTLKGRRLLRRGDDTSLFVKVYMEGVPIGRKLDLCVFSGYESLLENLSHMFDTSIICGNRDRKHHVLTYEDKDGDWMMVGDIPWDMFLETVRRLKITRPERY
B5: ARF19 948-1086 (Arabidopsis thaliana, UniProt Q8RYC8); chain GLWPNQTQRMRTYTKVQKRGSVGRSIDVTRYSGYDELRHDLARMFGIEGQLEDPLTSDWKLVYTDHENDILLVGDDPWEEFVNCVQNIKILSSVEVQQMSLDGDLAAIPTTNQACSETDSGNAWKVHYEDTSAAASFNR
B6: ARF20 484-590 (Arabidopsis thaliana, UniProt Q9C7I9); chain IEIQSKQFGSTRTCTKVQMQGVTIGRAVDLSVLNGYDQLILELEKLFDLKGQLQTRNQWKIAFTDSDGYEMLVGDDPWPEFCKMVKKILIYSKEEVKNLKSSKSLSS
B7: IAA32 (Arabidopsis thaliana, UniProt Q8RYC6); chain MDPNTPADFFKGSSKFHTYYSQTKKGGGVIDLGLSLRTIQHETYLPPARMIGLDGYGELIDWSQPSYNSITQLKSEDTGHQRLAQGYYNNEGESRGKYAYVKVNLDGLVVGRKVCLVDQGAYATLALQLNDMFGMQTVSGLRLFQTESEFSLVYRDREGIWRNVGDVPWKEFVESVDRMRIARRNDALLPF
B8: IAA15 (Arabidopsis thaliana, UniProt Q9C966); chain MSPEEYVRVWPDSGDLGGTELTLALPGTPTNASEGPKKFGNKRRFLETVDLKLGEAHENNYISSMVTNDQLVGWPPVATARKTVRRKYVKVALDGAAYLRKVDLGMYDCYGQLFTALENMFQGIITICRVTELERKGEFVATYEDKDGDLMLVGDVPWMMFVESCKRMRLMKTGDAIGL
Construct (chain): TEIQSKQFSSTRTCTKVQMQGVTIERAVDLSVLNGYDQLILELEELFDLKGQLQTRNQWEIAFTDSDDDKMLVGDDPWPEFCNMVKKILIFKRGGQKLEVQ
Molecule = B1 (ARF12 500-593); value = 2
Molecule = B2 (IAA12); value = 1
Molecule = B3 (ARF5 788-902); value = 0
Molecule = B4 (IAA31); value = 1
Molecule = B5 (ARF19 948-1086); value = 0
Molecule = B6 (ARF20 484-590); value = 1
Molecule = B7 (IAA32); value = 4
Molecule = B8 (IAA15); value = 1

Repeated from above (block 2):
Substitution = L28R; value = 4.92%
Substitution = A170F; value = -21.4%
Substitution = E67K; value = 28.9%
Substitution = R69V; value = 43.9%
Substitution = D48Y; value = 3.71%
Substitution = R163G; value = 11.8%
Substitution = Q2N; value = 29.9%
